Results of several laboratories.
Each line is one published result; not all experiments were run side by side. Numbers after ± are the reported error. ≈ marks a conversion by molar mass, not a printed value.

SMILES | organism | test | test system | conditions | how to read | endpoint | value
COc1ccc(S(=O)(=O)NCc2c[nH]nc2-c2cccs2)cc1 | Plasmodium vivax | reinvasion | 1, human, human red blood cells | 1× EC50, 20 h | – | parasitemia | 0.8 ± 0.1%
CN(C)CCCSC(=S)N1CCN(C(=O)/C=C/c2coc3ccccc3c2=O)CC1 | TMV | virus inactivation | – | 500 µg/mL, mean | – | inhibition | 79%
c1ccc(-c2nc(-c3ccc4ccccc4c3)c[nH]2)cc1 | Schistosoma mansoni | – | mature male and female worms | 5 µM, 96 h | – | worm killing | 0%
NC(=NO)NCCC[C@H](N)C(=O)O | Schistosoma mansoni | – | schistosomula | 100 µM, 72 h, host cell coculture | – | viability | no effect
CC(C)C[C@@H]1NC(=O)[C@H](CCCCN)NC(=O)[C@H](C(C)C)NC(=O)[C@@H]2CCCN2C(=O)[C@@H](Cc2ccc(O)cc2)NC(=O)[C@H](CC(C)C)NC(=O)[C@H](CCCCN)NC(=O)[C@H](C(C)C)NC(=O)[C@H](CCCCN)NC(=O)[C@H](CC(C)C)NC(=O)[C@H](CCCCN)NC(=O)[C@@H]2CCCN2C(=O)[C@@H](Cc2ccc(O)cc2)NC(=O)[C@H](CCCCN)NC(=O)[C@H](CCCCN)NC1=O | Gram-positive bacteria | – | – | 24 h, 7 strains | – | MIC geometric mean | 5.9 µg/mL (≈ 3.23 µM)
O=[N+]([O-])c1ccc(/C=N/N=C/c2ccccc2)s1 | Trypanosoma evansi | parasite growth, CellTiter-Glo | Tansui bloodstream form | 72 h | – | IC50 | 420 ± 20 nM
CC[C@H](C)[C@H](NC(=O)CNC(=O)CNC(=O)[C@@H](N)CO)C(=O)NCC(=O)N1CCC[C@H]1C(=O)N[C@@H](CC(C)C)C(=O)N[C@H](C(=O)N[C@H](C(=O)N1CCC[C@H]1C(N)=O)[C@@H](C)CC)C(C)C | Clostridioides difficile | – | Caco-2 | concentration not given | – | reduction of proinflammatory cytokines | < 20%
CC[C@H](C)[C@H](NC(=O)[C@H](CC(C)C)NC(=O)[C@@H](N)CS)C(=O)N[C@@H](CCC(=O)O)C(=O)N[C@@H](Cc1ccc(O)cc1)C(=O)NCC(=O)NCC(=O)N[C@@H](C)C(=O)N[C@@H](CC(=O)O)C(=O)N[C@@H](Cc1ccc(O)cc1)C(=O)N[C@@H](CCCCN)C(=O)N[C@H](C(=O)N[C@H](C(=O)N[C@@H](CC(N)=O)C(=O)N[C@@H](CC(C)C)C(=O)N[C@@H](CCCCN)C(=O)O)[C@@H](C)CC)[C@@H](C)O | infectious bursal disease virus | qRT-PCR, item: p65 mRNA | DT40 cells, IBDV-infected | 50 to 100 nM, 12 h | relative to: IBDV-infected untreated | mRNA level | decreased
Cc1ncc([N+](=O)[O-])n1CCOCc1nnc(SCC(=O)c2ccc(Br)cc2)o1 | viridans streptococci | – | DMSO | 60 µg/mL, 24 h, 37 °C | – | inhibition zone diameter | 15 to 20 mm
Fc1ccc2c(c1)c1nc3ccc(Br)cc3c-1cn2Cc1cn(-c2ccccc2I)nn1 | Giardia duodenalis | UHPLC-Q-TOF-MS, item: PC(15:0/0:0) | trophozoites | IC50, 0.1407 h | relative to: 0.25% DMSO | fold change | 3.9
CCCCSc1cccc(O)c(=O)c1O | Hepatitis B virus | viral replication, inhibitor | HepDES19 | – | – | EC50 | 47 µM
O=[N+]([O-])c1ccc(/C=N/N=C/c2ccc(Cl)cc2)o1 | Trypanosoma brucei gambiense | parasite growth, CellTiter-Glo | IL1922 bloodstream form | 72 h | – | IC50 | 1200 ± 240 nM
CC[C@H](C)[C@H](NC(=O)[C@H](CCCN)NC(=O)[C@H](CC(N)=O)NC(=O)[C@H](Cc1c[nH]c2ccccc12)NC(=O)[C@H](Cc1ccccc1)NC(=O)[C@H](CCCN)NC(=O)[C@H](CCCNC(=N)N)NC(=O)[C@H](CC(C)C)NC(=O)[C@H](Cc1c[nH]c2ccccc12)NC(=O)[C@H](CCCN)NC(=O)[C@H](CCCNC(=N)N)NC(=O)[C@H](CC(C)C)NC(=O)CNC(C)=O)C(=O)N[C@@H](CCCN)C(=O)N[C@@H](CCCNC(=N)N)C(N)=O | Gram-positive bacteria | – | – | – | – | geometric mean MIC | 3.13 µM
CS(=O)(=O)c1cccc(O)c(=O)c1O | Cryptococcus neoformans | microbial growth, broth dilution | – | 13 h | – | MIC80 | 50 µM (≈ 10.8 µg/mL)
O=c1[nH]cc(C(c2cccc(C(F)(F)F)c2)c2c[nH]c(=O)[nH]c2=O)c(=O)[nH]1 | Human immunodeficiency virus 1 | viral replication, inhibitor, ELISA | – | 1 µg/mL | – | inhibition | 74%
C#CCN1CCc2c(n(C(=C)C(=O)OC)c3ccccc23)C(C(=O)OC)C1 (stereo not drawn) | Hepatitis B virus | viral replication, inhibitor, qPCR | HePAD38 | 5 µM | – | inhibition | > 95%
CC(C)S(=O)(=O)c1cccc(O)c(=O)c1O | Hepatitis B virus | viral replication, inhibitor | HepDES19 | – | – | EC50 | 0.79 µM
C#CCN1CCc2c3n(c4ccccc24)C(=O)C(=C)CC3(C(=O)OC)C1 (stereo not drawn) | Hepatitis B virus | viral replication, inhibitor, qPCR | HePAD38 | 5 µM | – | inhibition | ~10%
CC(C)C[C@H](NC(=O)OCc1ccccc1)C(=O)N[C@@H](C[C@@H]1CCNC1=O)C(O)S(=O)(=O)[O-].[Na+] (stereo partly drawn) | Coxsackievirus A10 | plaque | RD | 5 µM, 1 h, 37 °C | relative to: DMSO | viral entry | no effect
CC(C)Sc1cccc(O)c(=O)c1O | Hepatitis B virus | viral replication, inhibitor | HepDES19 | – | – | EC50 | 31 µM

SMILES | organism | test | test system | conditions | how to read | endpoint | value
O=[N+]([O-])c1ccc(/C=N/N=C/c2ccc(O)cc2)s1 | Trypanosoma evansi | parasite growth, CellTiter-Glo | Tansui bloodstream form | 72 h | – | IC50 | 610 ± 20 nM
CC(C)C[C@@H]1NC(=O)[C@H](CCCCN)NC(=O)[C@H](C(C)C)NC(=O)[C@@H]2CCCN2C(=O)[C@@H](Cc2ccc(O)cc2)NC(=O)[C@H](CC(C)C)NC(=O)[C@H](CCCCN)NC(=O)[C@H](C(C)C)NC(=O)[C@H](CCCCN)NC(=O)[C@H](CC(C)C)NC(=O)[C@@H]2CCCN2C(=O)[C@@H](Cc2ccc(O)cc2)NC(=O)[C@H](C(C)C)NC(=O)[C@H](CCCCN)NC1=O | Gram-positive bacteria | – | – | 24 h, 7 strains | – | MIC geometric mean | 7.2 µg/mL (≈ 4.31 µM)
CC[C@H](C)[C@H](NC(=O)[C@H](CCCCN)NC(=O)[C@H](CC(N)=O)NC(=O)[C@H](Cc1c[nH]c2ccccc12)NC(=O)[C@H](Cc1ccccc1)NC(=O)[C@H](CCCCN)NC(=O)[C@H](CCCCNC(=N)N)NC(=O)[C@H](CC(C)C)NC(=O)[C@H](Cc1c[nH]c2ccccc12)NC(=O)[C@H](CCCCN)NC(=O)[C@H](CCCCNC(=N)N)NC(=O)[C@H](CC(C)C)NC(=O)CNC(C)=O)C(=O)N[C@@H](CCCCN)C(=O)N[C@@H](CCCCNC(=N)N)C(N)=O | Gram-positive bacteria | – | – | – | – | geometric mean MIC | 3.13 µM
O=C1CC(c2ccc(O)cc2)Oc2cc(O)cc([O][Ga+][O]c3cc(O)cc4c3C(=O)CC(c3ccc(O)cc3)O4)c21 (stereo not drawn) | Pseudomonas aeruginosa | – | – | 40 µM, 2 days, 48 h-old biofilm | – | biofilm eradication | ~50%
CC(=O)NC(CC(C)C)C(=O)NC(C=O)CCCN=C(N)N (stereo not drawn) | Plasmodium vivax | parasite growth | – | 100 µM, 40 h | – | inhibition | 75.3 ± 1%
Brc1ccc(-c2c[nH]c(-c3ccccn3)n2)cc1 | Schistosoma mansoni | – | adult male worms | 100 µM | – | worm killing | 100%
CSc1ccc(SC)c(O)c(=O)c1O | Cryptococcus neoformans | microbial growth, broth dilution | – | 13 h | – | MIC80 | 38 µM (≈ 8.75 µg/mL)
Oc1ccccc1/C=N/NC(=S)Nc1cccc(F)c1 | Candidozyma auris | broth microdilution | 922 | – | relative to: hit compound | MIC fold improvement | 2 fold
O=[N+]([O-])c1ccc(/C=N/N=C/c2ccccc2)o1 | Trypanosoma evansi | parasite growth, CellTiter-Glo | Tansui bloodstream form | 72 h | – | IC50 | 3710 ± 2040 nM
N[C@H]1C[C@@H]1c1ccc(-c2cccc(O)c2)cc1 | herpes simplex virus 1 | titration on Vero cells | HeLa | 50 µM, 24 h post-infection | relative to: DMSO | viral yield reduction | ~100 fold
CCCCSc1ccc(SCCCC)c(O)c(=O)c1O | Cryptococcus neoformans | microbial growth, broth dilution | – | 13 h | – | MIC80 | 2.3 µM (≈ 0.723 µg/mL)
CC1(C)S[C@@H]2[C@H](NC(=O)[C@H](NC(=O)C3=C(O)C(c4ccccc4F)NC3=O)c3ccccc3)C(=O)N2[C@H]1C(=O)O (stereo partly drawn) | Escherichia coli | broth microdilution | BW25113, Mueller-Hinton broth | added: CCCP 50 µg/mL | – | MIC | 25 µg/mL (≈ 44 µM)
CC1(C)NCCC[C@]2(C)[C@H]3CC=C4[C@@H]5C[C@@](C)(CO)CC[C@]5(C)CC[C@@]4(C)[C@]3(C)CC[C@@H]12 | Human alphaherpesvirus 1 | cytopathic effect | HFF, E-377 | – | – | EC90 | > 6 µM
CC(C)C[C@@H]1NC(=O)[C@H](CCCCN)NC(=O)[C@H](C(C)C)NC(=O)[C@@H]2CCCN2C(=O)[C@@H](Cc2ccc(O)cc2)NC(=O)[C@H](CC(C)C)NC(=O)[C@H](CCCCN)NC(=O)[C@H](C(C)C)NC(=O)[C@H](CCCCN)NC(=O)[C@H](CC(C)C)NC(=O)[C@H](CCCCN)NC(=O)[C@@H]2CCCN2C(=O)[C@@H](Cc2ccc(O)cc2)NC(=O)[C@H](C(C)C)NC(=O)[C@H](CCCCN)NC1=O | Gram-positive bacteria | – | – | 24 h, 7 strains | – | MIC geometric mean | 1.1 µg/mL (≈ 0.612 µM)
O=[N+]([O-])c1ccc(/C=N/N=C/c2ccc([N+](=O)[O-])s2)cc1 | Trypanosoma brucei gambiense | parasite growth, CellTiter-Glo | IL1922 bloodstream form | 72 h | – | IC50 | 970 ± 190 nM
Cc1nc2c(cnn2C(C)C)cc1C(=O)NCc1ccc(C(C)O)c(C)n1 (stereo not drawn) | Drosophila melanogaster | larval locomotor rescue | APP Alzheimer model third-instar larvae | oral in food, dose not given | – | effective concentration | ≥ 1 µM
COc1ncccc1C(=O)Nc1ccccc1Nc1ccccc1 | Botrytis cinerea | microbial growth | – | 50 µg/mL | – | inhibition | 36.5%
O=[N+]([O-])c1ccc(/C=N/N=C/c2ccc(Br)cc2)o1 | Trypanosoma brucei gambiense | parasite growth, CellTiter-Glo | IL1922 bloodstream form | 72 h | – | IC50 | 810 ± 200 nM
CC1C=CC=CC(C)C2C=CC3CC(C)(O)C(Cl)C(C)C3C2C(=O)C(Cl)(Cl)C(=O)C(C)C(=O)O1 (stereo not drawn) | Staphylococcus aureus | – | MSSA and MRSA clinical isolates | – | – | MIC50 | 0.1 µg/mL (≈ 0.188 µM)

Excerpt of the above:
SMILES | organism | test | test system | conditions | how to read | endpoint | value
O=[N+]([O-])c1ccc(/C=N/N=C/c2ccc(Cl)cc2)o1 | Trypanosoma brucei gambiense | parasite growth, CellTiter-Glo | IL1922 bloodstream form | 72 h | – | IC50 | 1200 ± 240 nM
Cc1nc2c(cnn2C(C)C)cc1C(=O)NCc1ccc(C(C)O)c(C)n1 (stereo not drawn) | Drosophila melanogaster | larval locomotor rescue | APP Alzheimer model third-instar larvae | oral in food, dose not given | – | effective concentration | ≥ 1 µM
O=[N+]([O-])c1ccc(/C=N/N=C/c2ccc(Br)cc2)o1 | Trypanosoma brucei gambiense | parasite growth, CellTiter-Glo | IL1922 bloodstream form | 72 h | – | IC50 | 810 ± 200 nM
